Measured values of several laboratories.
Protocols differ between the studies behind these lines. ± marks the error that the study gave.
Organism: Plasmodium falciparum

SMILES	assay	system	setting	scale	endpoint	value
Oc1cccc2c1[nH]c1c(C3=CC4(O)CCC=CCCCCN5CCC3C3(CC6C=CCCCCN6C43)C5)nccc12 (single isomer, unassigned; (+))	–	D6, chloroquine-sensitive	–	baseline: Vero IC50 over D6 IC50	selectivity index	40
CC(NC(=O)c1cccc(C(c2ccccc2)N2C(=N)NC(C)(C(C)C)CC2=O)c1)c1ccccc1 (stereo not drawn)	parasite growth	W2Mef	–	–	EC50	12.9 nM
CC1CCC(C(C)(C)C(=O)Nc2ccc(Oc3ccccc3)cc2)CC1 (stereo not drawn)	parasite growth, SYBR Green	HB3	blood stage	–	IC50	61 nM
CN1CCN(S(=O)(=O)c2ccc(-c3ccc4ncnc(Nc5ccc(F)cc5)c4c3)cc2)CC1	parasite growth, SYBR Green	D6	blood stage	–	EC50	360 nM
C[C@@H]1CC[C@H]2[C@@H](C)C(=O)O[C@@H]3O[C@@]4(C)CC[C@@H]1[C@]32OO4	parasite growth, SYBR Green	3D7	72 h, blood stage	–	IC50	19.3 nM
c1ccc(Nc2ncnc3ccc(-c4cccc(N5CCOCC5)c4)cc23)cc1	parasite growth, SYBR Green fluorescence	W2, drug-resistant	–	–	EC50	3300 nM
COc1ccccc1-n1c(SCC(=O)Nc2ccccc2F)nc2cccnc21	parasite growth, SYBR Green	3D7 wild type	72 h	–	EC50	332 ± 130 nM
CCC1(CC)CC(=O)N(C2CCOc3ccc(C(=O)NC4CC(C)(C)Oc5ccccc54)cc32)C(=N)N1 (stereo not drawn)	parasite growth	Dd2	–	–	EC50	0.5 nM
CCCN(Cc1nnc(-c2ccco2)o1)C(=O)C1CCCN(C(=O)c2ccc(Cl)cc2)C1 (stereo not drawn)	parasite growth, SYBR Green	3D7	72 h	–	EC50	187 nM
O=C(c1ccc(-c2ccc3ncnc(Nc4ccc(OCc5cccc(F)c5)c(Cl)c4)c3c2)cc1)N1CCOCC1	parasite growth, SYBR Green fluorescence	C235 (TM91C235), drug-resistant	–	–	EC50	610 nM
Cc1cc(Cl)ccc1OC(C)C(=O)N1CCc2ccccc21 (stereo not drawn)	parasite growth, SYBR Green	3D7	72 h	–	EC50	65.1 nM
COc1ccc2cc1Oc1cc3c(cc1OC)CCN(C)C3Cc1ccc(cc1)Oc1c(O)c(OC)cc3c1C(C2)N(C)CC3 (stereo not drawn)	parasite growth, inhibitor, SYBR Green I	Cam3.1 R539T (MRA-1240)	–	–	IC50	78 nM
O=C1C(O)=C([C@H]2CC[C@H](c3ccc(Cl)cc3)CC2)C(=O)c2ccccc21	parasite growth	3D7	–	–	EC50	1.7 ± 0.5 nM
COc1ccccc1-n1ccnc1SCC(=O)Nc1cc(C(F)(F)F)ccc1Cl	parasite growth	–	–	–	EC50	31.2 ± 7.6 nM
CCN(CC)CCCC(C)Nc1ccnc2cc(Cl)ccc12 (stereo not drawn)	parasite growth	Dd2-NITD609	–	–	EC50	591 ± 104 nM
Fc1cccc(COc2ccc(Nc3ncnc4ccc(-c5ccccc5)cc34)cc2Cl)c1	parasite growth, SYBR Green fluorescence	W2, drug-resistant	–	–	EC50	2600 nM
C[C@H]1Cc2c([nH]c3cc(Cl)c(F)cc23)[C@@]2(N1)C(=O)Nc1ccc(Cl)cc12	parasite growth	K1	–	–	EC50	1.9 ± 0.2 nM
COc1cc2c3cc1Oc1cc(ccc1O)CC1c4c(cc(OC)c(O)c4Oc4ccc(cc4)CC3N(C)CC2)CCN1C (stereo not drawn)	parasite growth, SYBR Green	–	blood stage	–	IC50	510 nM
Cc1nc2c(C#N)cccc2n1-c1ccc(C(=O)NC2CC2)s1	parasite growth	–	–	–	EC50	78.7 ± 22 nM
Nc1ncnc2c1c(-c1ccc(Oc3ccccc3)cc1)cn2C1CCCC1	–	FVO, purified merozoites, erythrocytes	50 µM	–	merozoite invasion	20%
COCCN(C)C(C)C(=O)NC(Cc1ccc(-c2ccccc2)cc1)B(O)O (stereo not drawn)	–	compound-selected recrudescent clone 1E9_F9	72 h	–	IC50	8480 ± 560 nM
Cc1nc2ccc(-c3ccc(OC(F)(F)F)cc3)cc2c(O)c1C#N	parasite growth	–	–	–	EC50	125 ± 32 nM
c1ccc(COc2ccc(Nc3ncnc4ccc(-c5cccc(N6CCOCC6)c5)cc34)cc2)cc1	parasite growth, SYBR Green fluorescence	C235 (TM91C235), drug-resistant	–	–	EC50	> 15000 nM
COC(=O)C1=CO[C@@H](C)[C@@H]2Cn3ccc4c5ccccc5nc-4c3C[C@H]12	growth, [3H]-hypoxanthine uptake	Dd2	48 h	baseline: Dd2 IC50 over 3D7 IC50	resistance index	0.1
Fc1cccc(COc2ccc(Nc3ncnc4ccc(-c5ccc(CN6CCCCC6)cc5)cc34)cc2Cl)c1	parasite growth, SYBR Green fluorescence	W2, drug-resistant	–	–	EC50	110 nM
C[C@H](Oc1ccc(C(=O)c2ccc(F)cc2)cc1)C(=O)N1CCc2ccc(C(F)(F)F)cc21	parasite growth, SYBR Green	3D7 wild type	72 h	–	EC50	< 10 nM
Fc1cccc(COc2ccc(Nc3ncnc4ccc(-c5cccc(CN6CCOCC6)c5)cc34)cc2Cl)c1	parasite growth, SYBR Green	D6	blood stage	–	EC50	190 nM
OC(c1cc(C(F)(F)F)nc2c(C(F)(F)F)cccc12)C1CCCCN1 (stereo not drawn)	parasite growth	K1	–	–	EC50	3.6 ± 1.3 nM
O=S(=O)(c1cccc(-c2ccc3ncnc(Nc4ccc(OCc5cccc(F)c5)c(Cl)c4)c3c2)c1)N1CCOCC1	parasite growth, SYBR Green	D6	blood stage	–	EC50	280 nM
O[C@]12C=C(c3nccc4c3[nH]c3ccccc34)[C@@H]3CCN(CCCC/C=C\CC1)C[C@@]31C[C@@H]3/C=C\CCCCN3[C@H]12	–	W2, chloroquine-resistant	–	baseline: compound over 4	IC50 ratio	> 3 fold

Repeated from above:
SMILES	assay	system	setting	scale	endpoint	value
COC(=O)C1=CO[C@@H](C)[C@@H]2Cn3ccc4c5ccccc5nc-4c3C[C@H]12	growth, [3H]-hypoxanthine uptake	Dd2	48 h	baseline: Dd2 IC50 over 3D7 IC50	resistance index	0.1
Fc1cccc(COc2ccc(Nc3ncnc4ccc(-c5ccc(CN6CCCCC6)cc5)cc34)cc2Cl)c1	parasite growth, SYBR Green fluorescence	W2, drug-resistant	–	–	EC50	110 nM
C[C@H](Oc1ccc(C(=O)c2ccc(F)cc2)cc1)C(=O)N1CCc2ccc(C(F)(F)F)cc21	parasite growth, SYBR Green	3D7 wild type	72 h	–	EC50	< 10 nM
Fc1cccc(COc2ccc(Nc3ncnc4ccc(-c5cccc(CN6CCOCC6)c5)cc34)cc2Cl)c1	parasite growth, SYBR Green	D6	blood stage	–	EC50	190 nM
